# Measured values gathered from unrelated publications.
# Lines come from different studies, so protocols differ. Numbers after ± are the reported error.
# ARID1B: AT-rich interactive domain-containing protein 1B (ARID1B, Homo sapiens, UniProt Q8NFD5)
# Chain of UniProt Q8NFD5 (whole entry, looked up): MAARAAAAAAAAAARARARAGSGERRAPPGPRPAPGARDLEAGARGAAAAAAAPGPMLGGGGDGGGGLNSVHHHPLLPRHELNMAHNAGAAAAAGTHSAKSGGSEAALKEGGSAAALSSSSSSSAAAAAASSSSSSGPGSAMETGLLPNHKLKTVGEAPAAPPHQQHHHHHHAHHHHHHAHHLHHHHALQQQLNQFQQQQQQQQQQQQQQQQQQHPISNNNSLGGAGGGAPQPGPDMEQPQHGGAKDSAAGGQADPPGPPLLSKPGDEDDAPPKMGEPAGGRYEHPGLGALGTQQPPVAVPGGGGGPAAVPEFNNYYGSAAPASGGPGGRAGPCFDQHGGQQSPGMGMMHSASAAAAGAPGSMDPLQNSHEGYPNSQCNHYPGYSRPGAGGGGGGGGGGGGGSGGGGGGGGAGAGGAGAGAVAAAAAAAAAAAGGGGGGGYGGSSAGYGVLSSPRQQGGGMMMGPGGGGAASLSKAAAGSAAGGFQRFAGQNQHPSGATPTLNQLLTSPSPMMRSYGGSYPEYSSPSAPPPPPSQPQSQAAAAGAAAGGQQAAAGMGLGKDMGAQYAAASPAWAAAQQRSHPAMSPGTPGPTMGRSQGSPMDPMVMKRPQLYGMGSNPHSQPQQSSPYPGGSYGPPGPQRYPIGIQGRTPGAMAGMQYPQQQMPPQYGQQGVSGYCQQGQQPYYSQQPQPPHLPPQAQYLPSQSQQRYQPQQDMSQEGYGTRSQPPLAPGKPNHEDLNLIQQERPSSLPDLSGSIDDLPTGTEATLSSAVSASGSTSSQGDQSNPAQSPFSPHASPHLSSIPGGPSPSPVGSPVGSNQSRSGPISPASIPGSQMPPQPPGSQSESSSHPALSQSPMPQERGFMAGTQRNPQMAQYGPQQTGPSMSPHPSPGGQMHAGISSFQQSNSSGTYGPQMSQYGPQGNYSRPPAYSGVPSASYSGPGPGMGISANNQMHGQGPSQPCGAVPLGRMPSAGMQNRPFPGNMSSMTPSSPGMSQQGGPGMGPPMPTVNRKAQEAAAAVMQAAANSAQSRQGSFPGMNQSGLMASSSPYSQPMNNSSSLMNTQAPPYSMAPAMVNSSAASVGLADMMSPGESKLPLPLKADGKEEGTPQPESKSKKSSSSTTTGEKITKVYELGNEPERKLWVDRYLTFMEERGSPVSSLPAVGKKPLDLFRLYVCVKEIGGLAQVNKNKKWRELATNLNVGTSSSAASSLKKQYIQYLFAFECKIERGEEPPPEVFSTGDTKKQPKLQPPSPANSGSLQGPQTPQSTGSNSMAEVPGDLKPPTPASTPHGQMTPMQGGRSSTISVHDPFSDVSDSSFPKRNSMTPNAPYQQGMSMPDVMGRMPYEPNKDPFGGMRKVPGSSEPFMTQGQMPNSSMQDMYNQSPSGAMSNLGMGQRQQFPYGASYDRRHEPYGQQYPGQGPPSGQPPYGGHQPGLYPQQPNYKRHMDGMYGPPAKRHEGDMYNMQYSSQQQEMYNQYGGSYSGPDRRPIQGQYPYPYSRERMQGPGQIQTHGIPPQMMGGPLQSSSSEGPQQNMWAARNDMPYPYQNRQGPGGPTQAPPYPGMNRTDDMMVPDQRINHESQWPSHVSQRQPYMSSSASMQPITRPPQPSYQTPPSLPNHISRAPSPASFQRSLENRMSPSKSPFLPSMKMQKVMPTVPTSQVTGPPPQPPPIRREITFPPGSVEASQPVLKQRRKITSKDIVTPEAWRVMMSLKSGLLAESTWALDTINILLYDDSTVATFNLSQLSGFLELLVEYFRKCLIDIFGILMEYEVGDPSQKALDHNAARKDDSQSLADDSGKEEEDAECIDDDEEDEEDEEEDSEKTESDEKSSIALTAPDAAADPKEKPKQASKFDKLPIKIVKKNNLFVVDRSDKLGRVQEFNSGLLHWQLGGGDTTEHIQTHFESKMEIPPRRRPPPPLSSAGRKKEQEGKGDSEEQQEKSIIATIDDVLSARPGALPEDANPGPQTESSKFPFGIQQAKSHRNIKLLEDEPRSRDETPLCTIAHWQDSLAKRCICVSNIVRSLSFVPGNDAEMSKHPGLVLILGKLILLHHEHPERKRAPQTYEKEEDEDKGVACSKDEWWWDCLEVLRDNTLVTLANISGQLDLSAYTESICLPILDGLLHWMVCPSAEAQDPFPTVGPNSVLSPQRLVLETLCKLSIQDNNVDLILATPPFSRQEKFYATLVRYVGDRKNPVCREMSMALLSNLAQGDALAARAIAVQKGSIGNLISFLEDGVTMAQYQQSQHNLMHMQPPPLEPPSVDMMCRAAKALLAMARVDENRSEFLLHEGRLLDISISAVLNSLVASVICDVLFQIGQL
# gyrB with GyrA: DNA gyrase subunit B, with GyrA (gyrB, Mycobacterium tuberculosis, UniProt P9WG45)
# Chain of UniProt P9WG45 (whole entry, looked up): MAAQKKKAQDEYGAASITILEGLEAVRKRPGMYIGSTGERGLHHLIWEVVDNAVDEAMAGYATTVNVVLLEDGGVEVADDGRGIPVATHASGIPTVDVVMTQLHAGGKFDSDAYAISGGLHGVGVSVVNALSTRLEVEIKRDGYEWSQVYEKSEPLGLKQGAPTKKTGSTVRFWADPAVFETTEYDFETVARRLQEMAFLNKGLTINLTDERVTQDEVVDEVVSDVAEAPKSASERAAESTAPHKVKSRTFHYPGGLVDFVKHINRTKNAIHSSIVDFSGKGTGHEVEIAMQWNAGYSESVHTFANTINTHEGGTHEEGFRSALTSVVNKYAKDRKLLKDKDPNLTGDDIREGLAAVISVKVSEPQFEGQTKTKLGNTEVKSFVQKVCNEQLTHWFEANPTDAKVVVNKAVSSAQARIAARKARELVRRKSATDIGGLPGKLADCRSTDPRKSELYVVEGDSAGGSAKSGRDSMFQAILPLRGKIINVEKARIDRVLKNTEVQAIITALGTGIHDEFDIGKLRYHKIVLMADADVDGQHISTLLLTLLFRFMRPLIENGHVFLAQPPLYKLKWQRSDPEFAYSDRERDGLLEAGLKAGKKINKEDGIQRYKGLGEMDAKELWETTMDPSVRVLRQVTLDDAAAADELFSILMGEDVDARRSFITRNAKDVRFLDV
# Chain of UniProt P21554 (whole entry, unmodified, looked up): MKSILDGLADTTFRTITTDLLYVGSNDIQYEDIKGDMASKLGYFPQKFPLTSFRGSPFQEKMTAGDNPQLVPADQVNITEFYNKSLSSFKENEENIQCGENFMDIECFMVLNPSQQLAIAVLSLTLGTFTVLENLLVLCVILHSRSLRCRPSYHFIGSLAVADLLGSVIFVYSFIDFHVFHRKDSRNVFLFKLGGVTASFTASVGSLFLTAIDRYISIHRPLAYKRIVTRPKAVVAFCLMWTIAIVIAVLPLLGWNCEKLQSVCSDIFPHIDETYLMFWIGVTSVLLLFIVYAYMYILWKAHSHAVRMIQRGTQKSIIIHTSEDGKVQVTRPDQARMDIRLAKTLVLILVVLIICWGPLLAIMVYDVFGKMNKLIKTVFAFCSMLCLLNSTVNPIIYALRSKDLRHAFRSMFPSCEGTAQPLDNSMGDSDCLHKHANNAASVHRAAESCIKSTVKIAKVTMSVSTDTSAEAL
# Chain of UniProt Q9TUI8 (whole entry, looked up): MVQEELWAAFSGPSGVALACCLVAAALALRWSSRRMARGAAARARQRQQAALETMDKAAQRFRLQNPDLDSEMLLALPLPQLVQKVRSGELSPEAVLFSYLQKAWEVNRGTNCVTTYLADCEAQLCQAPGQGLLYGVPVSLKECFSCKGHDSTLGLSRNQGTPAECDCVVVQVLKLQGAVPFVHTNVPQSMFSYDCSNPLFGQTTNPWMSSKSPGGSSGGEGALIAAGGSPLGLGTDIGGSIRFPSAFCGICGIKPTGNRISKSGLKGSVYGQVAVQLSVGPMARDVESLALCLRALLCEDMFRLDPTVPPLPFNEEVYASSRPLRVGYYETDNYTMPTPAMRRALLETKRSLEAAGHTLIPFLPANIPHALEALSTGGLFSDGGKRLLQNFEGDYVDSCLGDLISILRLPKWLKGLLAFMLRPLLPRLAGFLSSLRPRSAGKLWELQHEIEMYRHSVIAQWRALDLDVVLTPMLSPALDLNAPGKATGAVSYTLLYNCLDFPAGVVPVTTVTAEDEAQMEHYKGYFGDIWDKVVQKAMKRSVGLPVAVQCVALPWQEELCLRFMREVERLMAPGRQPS
# Chain of UniProt P03452 (whole entry, looked up): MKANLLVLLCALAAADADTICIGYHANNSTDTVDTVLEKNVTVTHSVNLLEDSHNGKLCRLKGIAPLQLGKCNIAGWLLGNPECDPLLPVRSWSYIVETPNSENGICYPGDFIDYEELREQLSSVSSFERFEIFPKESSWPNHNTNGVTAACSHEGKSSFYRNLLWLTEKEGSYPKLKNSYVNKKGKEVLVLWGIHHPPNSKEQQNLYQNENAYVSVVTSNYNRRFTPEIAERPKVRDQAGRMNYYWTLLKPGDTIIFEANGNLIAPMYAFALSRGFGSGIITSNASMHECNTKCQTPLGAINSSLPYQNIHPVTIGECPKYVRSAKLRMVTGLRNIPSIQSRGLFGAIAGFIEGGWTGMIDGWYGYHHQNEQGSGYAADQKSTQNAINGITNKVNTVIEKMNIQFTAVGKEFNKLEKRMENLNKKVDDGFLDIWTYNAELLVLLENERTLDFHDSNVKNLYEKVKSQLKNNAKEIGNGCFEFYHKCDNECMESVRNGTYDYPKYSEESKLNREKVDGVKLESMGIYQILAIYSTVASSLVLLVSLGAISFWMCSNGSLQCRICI
Structure (SMILES),tested on,test,system,setting,how to read,measurement,result
CC(C)c1nc2cc(O)ccc2c(=O)n1-c1ccc(C#N)cc1,"Transient receptor potential cation channel subfamily V member 1 (TRPV1, Homo sapiens, UniProt Q8NER1, T550L)","ion current, antagonist, whole-cell patch clamp",,"mutant T550L, +80 mV, together with: pH 5 stimulus",,IC50,0.6 µM
CC1=C[C@H]2c3c(O)cc(CCc4ccccc4)cc3OC(C)(C)[C@@H]2CC1,"Fatty-acid amide hydrolase 1 (FAAH, Sus scrofa, UniProt Q9TUI8)",inhibitor,,,,IC50,43.6 ± 3.5 µM
CS(C)(=O)=Nc1ccc(-c2ccc(-c3nc4cc(O[C@@H]5CO[C@H]6[C@@H]5OC[C@H]6O)[nH]c4cc3F)cc2)cc1,"TGF-beta receptor type-1 (TGFBR1, Homo sapiens, UniProt P36897)","enzyme activity, inhibitor",,10 µM,,inhibition,-6%
CN(C)[C@H]1C[C@@]23CC[C@@]4(O2)C(=CC[C@]2(C)[C@@H](c5ccc6ccncc6c5)CC[C@H]24)C=C3[C@@H](O)[C@@H]1O,"Serine/threonine-protein kinase Sgk3 (SGK3, Homo sapiens, UniProt Q96BR1)","ATP probe labelling, inhibitor, KiNativ profiling",,1 µM,,inhibition,-1.2%
O=C(c1ccc(Cl)cc1Cl)N1CCO[C@@H](c2ccccc2)C1,"Hemagglutinin (HA, Influenza A virus, UniProt P03452)",,A/Puerto Rico/8/1934,,,IC50,1.9 µM
COc1ccccc1-c1n[nH]c2nc(NC3CCN(C(=O)Cc4ccc(F)cc4F)CC3)ncc12,,"bead binding, competition bead pull-down, item: LINJ.31.2410",Leishmania donovani axenic amastigote extract,10 µM,reference: vehicle,relative abundance,0.84
CC(C)C[C@@H]1NC(=O)CN(C)C(=O)[C@H](Cc2c[nH]c3ccccc23)NC(=O)[C@H](CCC(=O)O)NC(=O)[C@H](C)N(C)C(=O)[C@H](Cc2ccccc2)NC(=O)CSC[C@@H](C(N)=O)NC(=O)[C@H](CCCCN)NC(=O)[C@H](C(C)C)NC(=O)[C@H](Cc2ccc(O)cc2)NC(=O)[C@H](Cc2ccc(O)cc2)NC(=O)[C@H](C(C)C)NC(=O)[C@H](Cc2ccccc2)N(C)C(=O)[C@H](CCCNC(=N)N)NC1=O,ARID1B,"binding, TR-FRET competition",,1% DMSO,,IC50,> 1 µM
Cc1cccc(NC(=O)CCc2c(C(=O)Nc3cccc(C)c3)[nH]c3ccc(Cl)cc23)c1,gyrB with GyrA,,,,,IC50,32.5 µM
CC(C)C[C@@H]1NC(=O)CN(C)C(=O)[C@H](Cc2c[nH]c3ccccc23)NC(=O)[C@H](CCC(=O)O)NC(=O)[C@H](Cc2ccccc2)N(C)C(=O)[C@H](Cc2ccc(N=[N+]=[N-])cc2)NC(=O)CSC[C@@H](C(N)=O)NC(=O)[C@H](CCCCN)NC(=O)[C@H](C(C)C)NC(=O)[C@H](Cc2ccc(O)cc2)NC(=O)[C@H](Cc2ccc(O)cc2)NC(=O)[C@H](C(C)C)NC(=O)[C@H](Cc2ccccc2)N(C)C(=O)[C@H](CCCNC(=N)N)NC1=O,ARID1B,"binding, TR-FRET competition",,1% DMSO,,IC50,0.02 µM
C[C@@H](N1CN([C@H]2c3ccccc3CSc3ccccc32)n2cc(C(=O)O)c(=O)c(O)c2C1=O)C(F)(F)F,"Polymerase acidic protein, endonuclease domain (PA, Influenza A virus, UniProt P15659)",,influenza A virus A/WSN/33 H1N1,,,IC50,0.039 µM
O=C(CCc1c(C(=O)Nc2cccc(Cl)c2)[nH]c2ccc(Cl)cc12)Nc1cccc(Cl)c1,gyrB with GyrA,,,,,IC50,138 µM
O=C1NC2(CC2)COc2ncc(F)cc2[C@H]2COCCN2c2ccn3ncc1c3n2,,,"Sprague-Dawley rat, female, serum","oral, 10 mg/kg/day, 4 weeks daily, end of recovery period",,pancreatic amylase activity,1440 ± 159 U/L
COc1ccccc1-c1n[nH]c2nc(N[C@H]3CC[C@H](NS(=O)(=O)CC(C)C)CC3)ncc12,,"bead binding, competition bead pull-down, item: LINJ.36.2070",Leishmania donovani extract,10 µM,reference: vehicle,relative abundance,0.81
CC(C)C[C@@H]1NC(=O)CN(C)C(=O)[C@H](Cc2c[nH]c3ccccc23)NC(=O)[C@H](CCC(=O)O)NC(=O)[C@H](Cc2ccccc2)N(C)C(=O)[C@H](Cc2ccccc2)NC(=O)CSC[C@@H](C(N)=O)NC(=O)[C@H](CCCCN)NC(=O)[C@H](C(C)C)NC(=O)[C@H](Cc2ccc(O)cc2)NC(=O)[C@H](C)NC(=O)[C@H](C(C)C)NC(=O)[C@H](Cc2ccccc2)N(C)C(=O)[C@H](CCCNC(=N)N)NC1=O,ARID1B,"binding, TR-FRET competition",,1% DMSO,,IC50,0.04 µM
Cc1ccc(NC(=O)CCc2c(C(=O)Nc3ccc(C)cc3)[nH]c3ccc(Cl)cc23)cc1,gyrB with GyrA,,,,,IC50,122 µM
CC(C)(C)C(=O)OCOP(=O)(OCOC(=O)C(C)(C)C)C1CCCN(O)C1=O (stereo not shown),OVCAR-4,,,,,GI50,0.508 µM
O=C(CCc1c(C(=O)Nc2cccc(F)c2)[nH]c2ccc(Cl)cc12)Nc1cccc(F)c1,gyrB with GyrA,,,,,IC50,22.8 µM
CC(C)CC(C(=O)N1CC2(CC1C#N)C(=O)Nc1ccccc12)N(C)C(=O)c1cc2c(F)cc(F)c(F)c2[nH]1 (stereo not shown),"Angiotensin-converting enzyme 2 (ACE2, Homo sapiens, UniProt Q9BYF1)","enzyme activity, inhibitor",,,,IC50,> 100 µM
CC(C)C[C@@H]1NC(=O)CN(C)C(=O)[C@H](Cc2c[nH]c3ccccc23)NC(=O)[C@H](CCC(=O)O)NC(=O)[C@H](Cc2ccccc2)N(C)C(=O)[C@H](Cc2ccccc2)NC(=O)CSC[C@@H](C(N)=O)NC(=O)[C@H](C)NC(=O)[C@H](C(C)C)NC(=O)[C@H](Cc2ccc(O)cc2)NC(=O)[C@H](Cc2ccc(O)cc2)NC(=O)[C@H](C(C)C)NC(=O)[C@H](Cc2ccccc2)N(C)C(=O)[C@H](CCCNC(=N)N)NC1=O,ARID1B,"binding, TR-FRET competition",,1% DMSO,,IC50,0.01 µM
Cc1ccc2c(C(C[N+](=O)[O-])c3cccs3)c(-c3ccccc3)[nH]c2c1 (stereo not shown),"Cannabinoid receptor 1 (CNR1, Homo sapiens, UniProt P21554, Y397A)","G protein activation, agonist, BRET",,,,EC50,0.13 µM
O=C(CCc1c(C(=O)Nc2ccc(Cl)cc2)[nH]c2ccc(C(F)(F)F)cc12)Nc1ccc(Cl)cc1,gyrB with GyrA,,,,,IC50,7.9 µM
CC(C)C[C@@H]1NC(=O)CN(C)C(=O)[C@H](C)NC(=O)[C@H](CCC(=O)O)NC(=O)[C@H](Cc2ccccc2)N(C)C(=O)[C@H](Cc2ccccc2)NC(=O)CSC[C@@H](C(N)=O)NC(=O)[C@H](CCCCN)NC(=O)[C@H](C(C)C)NC(=O)[C@H](Cc2ccc(O)cc2)NC(=O)[C@H](Cc2ccc(O)cc2)NC(=O)[C@H](C(C)C)NC(=O)[C@H](Cc2ccccc2)N(C)C(=O)[C@H](CCCNC(=N)N)NC1=O,ARID1B,"binding, TR-FRET competition",,1% DMSO,,IC50,> 1 µM

# Repeated from above:
Structure (SMILES),tested on,test,system,setting,how to read,measurement,result
Cc1ccc2c(C(C[N+](=O)[O-])c3cccs3)c(-c3ccccc3)[nH]c2c1 (stereo not shown),"Cannabinoid receptor 1 (CNR1, Homo sapiens, UniProt P21554, Y397A)","G protein activation, agonist, BRET",,,,EC50,0.13 µM
O=C(CCc1c(C(=O)Nc2ccc(Cl)cc2)[nH]c2ccc(C(F)(F)F)cc12)Nc1ccc(Cl)cc1,gyrB with GyrA,,,,,IC50,7.9 µM
CC(C)C[C@@H]1NC(=O)CN(C)C(=O)[C@H](C)NC(=O)[C@H](CCC(=O)O)NC(=O)[C@H](Cc2ccccc2)N(C)C(=O)[C@H](Cc2ccccc2)NC(=O)CSC[C@@H](C(N)=O)NC(=O)[C@H](CCCCN)NC(=O)[C@H](C(C)C)NC(=O)[C@H](Cc2ccc(O)cc2)NC(=O)[C@H](Cc2ccc(O)cc2)NC(=O)[C@H](C(C)C)NC(=O)[C@H](Cc2ccccc2)N(C)C(=O)[C@H](CCCNC(=N)N)NC1=O,ARID1B,"binding, TR-FRET competition",,1% DMSO,,IC50,> 1 µM
